# Results collected from several papers.
# Numbered parts are unrelated; each lists some results of a single study. “And” joins repeats or separate records; there may be more than shown.
# Sequence of UniProt Q8CE90 (whole entry, looked up): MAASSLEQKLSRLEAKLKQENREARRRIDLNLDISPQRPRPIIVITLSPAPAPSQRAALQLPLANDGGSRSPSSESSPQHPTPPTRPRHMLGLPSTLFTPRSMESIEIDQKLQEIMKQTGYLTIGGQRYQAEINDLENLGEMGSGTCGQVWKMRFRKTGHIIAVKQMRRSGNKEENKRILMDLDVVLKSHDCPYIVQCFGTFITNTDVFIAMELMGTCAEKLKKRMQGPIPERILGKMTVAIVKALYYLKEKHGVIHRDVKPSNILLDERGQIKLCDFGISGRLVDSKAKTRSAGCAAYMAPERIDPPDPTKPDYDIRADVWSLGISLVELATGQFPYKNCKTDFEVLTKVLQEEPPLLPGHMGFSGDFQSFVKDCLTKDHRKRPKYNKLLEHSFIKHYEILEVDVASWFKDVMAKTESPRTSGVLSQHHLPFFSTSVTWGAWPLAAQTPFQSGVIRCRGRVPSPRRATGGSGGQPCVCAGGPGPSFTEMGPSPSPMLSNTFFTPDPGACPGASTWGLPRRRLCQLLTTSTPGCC

# Study 1
# Target: Histamine H3 receptor (HRH3, Homo sapiens, UniProt Q9Y5N1)
# Sequence of UniProt Q9Y5N1 (whole entry, looked up): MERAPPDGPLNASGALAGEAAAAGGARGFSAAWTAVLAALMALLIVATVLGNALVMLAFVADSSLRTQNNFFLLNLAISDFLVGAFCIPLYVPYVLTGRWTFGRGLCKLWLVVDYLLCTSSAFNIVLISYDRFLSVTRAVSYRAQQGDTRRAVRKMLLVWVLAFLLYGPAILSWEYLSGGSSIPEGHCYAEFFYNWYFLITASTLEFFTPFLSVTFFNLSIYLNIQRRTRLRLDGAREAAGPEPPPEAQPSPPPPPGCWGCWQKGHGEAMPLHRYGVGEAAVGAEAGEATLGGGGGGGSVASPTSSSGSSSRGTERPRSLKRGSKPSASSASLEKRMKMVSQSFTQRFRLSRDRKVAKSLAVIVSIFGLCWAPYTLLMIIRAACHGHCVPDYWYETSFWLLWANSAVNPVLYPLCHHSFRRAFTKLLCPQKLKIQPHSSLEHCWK
# Read-out: binding
# Technique: radioligand binding
# Concentration: 10 µM
SMILES,inhibition
CN1C(=O)[C@@H](N2CCc3cn(Cc4ccccc4)nc3C2=O)COc2ccccc21,-19.6%
Cc1nc(C2CCN(C(=O)c3ccc(OC(F)(F)F)cc3N)CC2)c2ncc(N3CCN(C)CC3)cc2n1,38.4%
CC1=C(C#N)[C@@H](c2ccc3[nH]nc(C)c3c2)C(C#N)=C(c2ccc(Cl)cc2)N1,-19.6%
CCCOc1ccc([C@H]2[C@H](C(=O)O)[C@@H](c3ccc4c(c3)OCO4)CN2CC(=O)Nc2c(CC)cccc2CC)cc1,-16.7%
O=C(Nc1cccnn1)N1CC(CC=Cc2cncc(Oc3ccc(C(F)(F)F)cn3)n2)C1,17.3%
Cc1nccc(COC(=O)N2C[C@@H]3[C@@H](CNC(=O)c4ccc5[nH]nnc5c4)[C@@H]3C2)n1,9.03%
CC(=O)c1c(NS(C)(=O)=O)c2cc(-c3ccc(Cl)cc3)c(-c3ccc(Cl)cc3Cl)nc2n(C)c1=O,0.553%
COc1nc2ccc([C@@](O)(c3ccccc3)C3CCN(C(C)=O)CC3)cc2c(Cl)c1Cc1ccc(-n2cccn2)cc1,0.46%
O=C1CCc2cc(Nc3cc(OC4CCOCC4)c([N+](=O)[O-])cc3Cl)ccc2N1,15.1%
O=C(Nc1ccc(-n2nc(-c3cccnc3)cc2C(F)(F)F)cn1)c1ccc(-c2ccccc2)c(F)c1,-1.54%
O=C(NC[C@@H]1[C@H]2CN(C(=O)OCc3cc(C(F)(F)F)cc(C(F)(F)F)c3)C[C@@H]12)c1ccc2[nH]nnc2c1,-5.26%
CC(=O)Nc1nc(CN2CCC[C@H](Cc3cc(C)nc(C)c3)C2)cs1,27.1%
CC(C)(O)c1cncc(-c2nc3ccc(F)cc3n2C2CC2)c1,-4.55%
Cc1cc(C)c(-n2ccn3nc(-c4cccnc4)cc23)cc1NC(=O)c1cc(C#N)cc(S(F)(F)(F)(F)F)c1,-5.88%
CS(=O)(=O)NCC[C@H](NC(=O)c1cncc2c1cnn2-c1ccc(F)cc1)c1ccnc(S(C)(=O)=O)c1,18.9%
C[C@@H]1CN(c2cc(-c3nn(C)c4ccc(OC5(C)CC5)cc34)ncn2)C[C@H](C)O1,-6.25%
CCOCCn1cc(C(=O)Nc2ccc(-n3nc(-c4cccnc4)cc3C(F)(F)F)cn2)ccc1=O,25.3%
O=C(Nc1cccnn1)N1CCC(=Cc2cccc(Oc3ccc(C(F)(F)F)cn3)c2)CC1,8.73%
CN(C)C(=O)Cn1cc(-c2nc([C@@](C)(c3ccc(-c4cnc(N)nc4)cc3)C3CC3)no2)cn1,11%
CC(=O)Nc1c(F)cc(C(=O)N[C@H]2CC[C@H](O)CC2)cc1O[C@@H](C)c1ccccc1,-15%
C[C@@]1(Cc2ccc(C#N)cc2)C(=O)N(c2cc(Cl)cc(Cl)c2)c2ncc(C(=O)NC3(c4nc(C5CCC5)no4)CC3)n21,20%
CC(=O)N1CCC(c2ccc(C(=O)NC(=N)N)cc2C(F)(F)F)CC1,-6.54%
CCOC(=O)c1cc2cc(-c3cc(C(=O)NCc4ccc(C(=O)O)cc4)nn3C)ccc2[nH]1,8.18%
O=C1c2ccc(Nc3ccc(F)cc3F)cc2CCc2ccc(OC[C@H](O)CO)cc21,10.9%
CC(C)CC(=O)N1CCc2nc(-c3ccc(Br)cc3)nc(N(C)Cc3ccccc3)c2C1,18.3%

# Study 2
# Compound: COc1cc(C(=O)N2CCC(N3CCN(C)CC3)CC2)ccc1Nc1ncc2c(n1)N(C)c1ccccc1C(=O)N2C
# Lyn: Tyrosine-protein kinase Lyn (Lyn, Mus musculus, UniProt P25911)
# Sequence of UniProt P25911 (whole entry, looked up): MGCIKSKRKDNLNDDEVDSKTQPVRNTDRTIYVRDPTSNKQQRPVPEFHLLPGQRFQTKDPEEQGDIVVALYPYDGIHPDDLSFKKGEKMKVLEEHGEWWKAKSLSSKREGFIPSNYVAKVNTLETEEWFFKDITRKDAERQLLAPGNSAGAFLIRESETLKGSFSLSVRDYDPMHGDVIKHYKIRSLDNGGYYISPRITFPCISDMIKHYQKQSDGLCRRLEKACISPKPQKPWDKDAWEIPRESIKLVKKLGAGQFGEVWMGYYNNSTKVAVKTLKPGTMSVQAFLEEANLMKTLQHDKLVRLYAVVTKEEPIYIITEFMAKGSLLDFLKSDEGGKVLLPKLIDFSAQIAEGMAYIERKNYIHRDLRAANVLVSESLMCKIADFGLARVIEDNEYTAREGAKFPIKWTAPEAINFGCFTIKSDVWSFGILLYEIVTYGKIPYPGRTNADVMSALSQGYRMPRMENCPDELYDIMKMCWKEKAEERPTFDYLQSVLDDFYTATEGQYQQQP
tested on,test,system,conditions,inhibition
human PBMC,"probe labeling, inhibitor, KiNativ profiling, item: DIkSQNIFLTK",cell lysate,"1 µM, LYS2 site, added: ATP acyl-phosphate probe",-2.9%
human PBMC,"probe labeling, inhibitor, KiNativ profiling",cell lysate,"concentration not given, domain 2, LYS1 site, added: ADP acyl-phosphate probe 0.1 µM",2.7%
MYLK,KiNativ ADP probe,mouse brain lysate,"1 µM, LYS1 site",12.5%
PKCe (mouse),"probe labelling, KiNativ, item: LYS1 site peptide",brain tissue lysate (mouse),"0.1 µM, added: ADP acyl-phosphate probe",6.1%
Lyn,"enzyme activity, inhibitor",,1 µM,-12.9%
TNIK (human),"probe labelling, KiNativ, item: Lys1 site peptide",PBMC lysate (human),"1 µM, added: ATP acyl-phosphate probe",6.1%
NEK1 (mouse),"probe labelling, KiNativ, item: DIkSQNIFLTK peptide, LYS2 site",brain tissue lysate (mouse),"0.1 µM, added: ADP acyl-phosphate probe",-11.5%
PIP5K1C (mouse),KiNativ ADP probe,mouse brain tissue,"0.1 µM, ATP site probe",6.5%
mouse CaMK1α,"probe labelling, KiNativ ATP probe",mouse brain lysate,"1 µM, LYS1 site LVAIkCIAK",-18.5%
EGFR (mouse),"probe labelling, KiNativ, item: IPVAIkELR peptide, LYS1 site",brain tissue lysate (mouse),"1 µM, added: ATP acyl-phosphate probe",-14.5%
Lyn,"enzyme activity, inhibitor",,0.1 µM,-7.6%
MST3 (mouse),KiNativ ADP probe,mouse brain tissue,"0.1 µM, probe site LYS1",-20.3%
"Dual specificity mitogen-activated protein kinase kinase 7 (Map2k7, Mus musculus, UniProt Q8CE90)","probe labelling, KiNativ, item: DVkPSNILLDER peptide, Lys2 site",brain tissue lysate (mouse),"1 µM, added: ATP acyl-phosphate probe",-9.8%
human PBMC,"probe labeling, inhibitor, KiNativ profiling, item: VDTHALYAMkTLR",cell lysate,"concentration not given, LYS1 site, added: ATP acyl-phosphate probe",-9.2%
MYLK,KiNativ ATP probe,human PBMC lysate,"0.1 µM, ATP loop site",-6%

# Study 3
# Target: Focal adhesion kinase 1 (PTK2, Homo sapiens, UniProt Q05397)
# Sequence of UniProt Q05397 (whole entry, looked up): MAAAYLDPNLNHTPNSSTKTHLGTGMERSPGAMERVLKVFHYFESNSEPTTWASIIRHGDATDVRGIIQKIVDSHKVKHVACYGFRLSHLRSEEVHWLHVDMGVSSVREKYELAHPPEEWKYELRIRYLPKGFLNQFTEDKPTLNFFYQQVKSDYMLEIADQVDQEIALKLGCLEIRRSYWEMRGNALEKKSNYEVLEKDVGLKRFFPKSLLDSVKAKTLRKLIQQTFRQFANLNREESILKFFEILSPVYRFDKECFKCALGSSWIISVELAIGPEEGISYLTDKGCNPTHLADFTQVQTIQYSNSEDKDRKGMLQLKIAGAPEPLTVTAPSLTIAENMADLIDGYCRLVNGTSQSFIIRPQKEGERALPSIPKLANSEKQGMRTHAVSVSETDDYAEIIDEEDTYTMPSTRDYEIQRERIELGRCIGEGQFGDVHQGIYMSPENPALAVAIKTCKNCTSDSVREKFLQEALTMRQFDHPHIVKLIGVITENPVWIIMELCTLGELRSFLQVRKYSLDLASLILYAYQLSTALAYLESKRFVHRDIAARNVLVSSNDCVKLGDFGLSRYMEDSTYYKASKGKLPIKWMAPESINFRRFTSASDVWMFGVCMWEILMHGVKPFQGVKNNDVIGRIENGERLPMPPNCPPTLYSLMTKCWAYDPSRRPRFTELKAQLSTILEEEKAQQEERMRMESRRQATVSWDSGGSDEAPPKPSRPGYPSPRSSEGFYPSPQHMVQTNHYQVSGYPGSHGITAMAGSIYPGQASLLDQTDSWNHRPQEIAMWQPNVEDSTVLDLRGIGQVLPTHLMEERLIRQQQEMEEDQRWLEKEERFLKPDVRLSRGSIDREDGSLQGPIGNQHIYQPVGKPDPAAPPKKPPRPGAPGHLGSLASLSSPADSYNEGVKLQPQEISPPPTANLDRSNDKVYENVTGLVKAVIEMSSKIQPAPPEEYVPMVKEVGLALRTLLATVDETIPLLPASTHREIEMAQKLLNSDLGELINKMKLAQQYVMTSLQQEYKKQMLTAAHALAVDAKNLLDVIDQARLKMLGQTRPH
# Read-out: enzyme activity
# Mode: inhibitor
# Concentration: 0.5 µM
# Baseline: control
SMILES,remaining activity [%]
O=S(=O)(NCCNC/C=C/c1ccc(Br)cc1)c1cccc2cnccc12,64.1
N#CC(=C(N)Sc1ccc(N)cc1)c1ccccc1C(F)(F)F,101
CSc1nc(-c2ccnc(N[C@@H](C)c3ccccc3)c2)c(-c2ccc(F)cc2)[nH]1 (racemic),99.1
Nc1nccc(-c2c(-c3ccc(F)cc3)ncn2C2CCNCC2)n1,94.1
CC(C)(C)n1nc(Cc2cccc3ccccc23)c2c(N)ncnc21,96.3
Cc1cncc2cccc(S(=O)(=O)N3CCCN(C(=O)CN)C[C@@H]3C)c12,78
COc1cc(Nc2c(C#N)cnc3cc(OCCCN4CCN(C)CC4)c(OC)cc23)c(Cl)cc1Cl,96
Nc1ncnc2c1cnn2-c1ccccc1,94.9
NC(=O)c1ccc(N(C(N)=O)c2c(F)cccc2F)nc1-c1ccc(F)cc1F,98.9
CC(=O)c1ccc(N2CCOCC2)cc1O,107
O=C1NC(=O)C(c2c[nH]c3ccccc23)=C1c1c[nH]c2ccccc12,101
CC[n+]1c(/C=C/N(C)c2ccccc2)n(-c2ccccc2)c2ccc(-c3nc4ccccc4s3)cc21,108
Cc1cc(Nc2nc(-c3ccccc3)nc3ccccc23)n[nH]1,59.9
CC#CC(=O)Nc1cc2c(Nc3ccc(F)c(Cl)c3)ncnc2cn1,102
COc1ccc(S(=O)(=O)N(CCO)c2ccccc2CN(C)CC=Cc2ccc(Cl)cc2)cc1,104
O=C1Cc2c([nH]c3ccc([N+](=O)[O-])cc23)-c2ccccc2N1,88.1
CCCC(=O)Oc1ccc2[nH]c(C(=O)c3cc4ccccc4[nH]3)cc2c1,94.1
Oc1ccc(Nc2nc(-c3ccc(Cl)cc3)cs2)cc1,99.4
Fc1ccc(-c2nc3n(c2-c2ccncc2)CCS3)cc1,102
CCc1[nH]c(-c2ccc(OC)cc2)nc1-c1ccncc1,101
Cc1ccc(NC2=CC(=O)c3sc(C)nc3C2=O)cc1,102

# Study 4
# Cell line: mouse MPNST tumor cells
# Technique: high-content immunofluorescence imaging
# Item: nuclear SOX9
# Concentration: 10 µM
# Time: 12 h
# Setting: mean of 2 replicates
# Baseline: DMSO control
# Direction: higher = more nuclear SOX9
Structure (SMILES),nuclear SOX9 intensity
COc1cccc(OC)c1-c1cc(C(=O)NC2(C(=O)O)C3CC4CC(C3)CC2C4)nn1-c1ccnc2cc(Cl)ccc12 (stereo not drawn),98.4 % of DMSO
Nc1nc(SCCc2ccc(S(=O)(=O)O)cc2)nc2c1ncn2[C@@H]1O[C@H](CO)[C@@H](O)[C@@H]1O,88.4 % of DMSO
CN1[C@@H]2CC[C@H]1C[C@@H](OC(c1ccccc1)c1ccccc1)C2,122 % of DMSO
CC(=O)N1CCN(c2ccc(OCC3COC(Cn4ccnc4)(c4ccc(Cl)cc4Cl)O3)cc2)CC1 (stereo not drawn),134 % of DMSO
CN(Cc1ccc(C(C)(C)C)cc1)Cc1cccc2ccccc12,108 % of DMSO
Cc1c(C(N)=O)nn(-c2ccc(Cl)cc2Cl)c1-c1ccc(Cl)cc1,108 % of DMSO
O=C(Oc1cccc2cccnc12)c1ccccc1,94.6 % of DMSO
O=C1[C@H]2CCCC[C@H]2C(=O)N1CCCCN1CCN(c2nsc3ccccc23)CC1,159 % of DMSO
CN(C)CCN1C(=O)c2ccccc2N(C)c2ccccc21,88.9 % of DMSO
OCCOCCN1CCN(C(c2ccccc2)c2ccc(Cl)cc2)CC1 (stereo not drawn),168 % of DMSO
CC[C@H](c1ccc(O)cc1)[C@@H](CC)c1ccc(O)cc1,110 % of DMSO
"CC(C)NCC(O)c1ccc(O)c(O)c1 (single isomer, unassigned; (-))",98.2 % of DMSO
NS(=O)(=O)c1ccc(-n2nc(C(F)(F)F)cc2-c2ccc(Cl)cc2)cc1,137 % of DMSO
CCC(=O)NC[C@H](Cc1ccc(OCCc2nc(-c3ccccc3)oc2C)cc1)N/C(C)=C\C(=O)c1ccc(C(F)(F)F)cc1,167 % of DMSO
O=C(O)CCN(O)C(=O)CCCCCCCCC1CC1,94.2 % of DMSO
O=C(O)c1ccccc1Nc1cccc(OCc2ccc3ccccc3n2)c1,90.2 % of DMSO
N#Cc1ccc(C(c2ccc(C#N)cc2)n2cncn2)cc1,94.8 % of DMSO and 94.9 % of DMSO

# For quick reference, copied from above (study 3):
SMILES,remaining activity [%]
CC(C)(C)n1nc(Cc2cccc3ccccc23)c2c(N)ncnc21,96.3
Cc1cncc2cccc(S(=O)(=O)N3CCCN(C(=O)CN)C[C@@H]3C)c12,78
COc1cc(Nc2c(C#N)cnc3cc(OCCCN4CCN(C)CC4)c(OC)cc23)c(Cl)cc1Cl,96
Nc1ncnc2c1cnn2-c1ccccc1,94.9
NC(=O)c1ccc(N(C(N)=O)c2c(F)cccc2F)nc1-c1ccc(F)cc1F,98.9
CC(=O)c1ccc(N2CCOCC2)cc1O,107
O=C1NC(=O)C(c2c[nH]c3ccccc23)=C1c1c[nH]c2ccccc12,101
CC[n+]1c(/C=C/N(C)c2ccccc2)n(-c2ccccc2)c2ccc(-c3nc4ccccc4s3)cc21,108
Cc1cc(Nc2nc(-c3ccccc3)nc3ccccc23)n[nH]1,59.9
CC#CC(=O)Nc1cc2c(Nc3ccc(F)c(Cl)c3)ncnc2cn1,102
COc1ccc(S(=O)(=O)N(CCO)c2ccccc2CN(C)CC=Cc2ccc(Cl)cc2)cc1,104
O=C1Cc2c([nH]c3ccc([N+](=O)[O-])cc23)-c2ccccc2N1,88.1
